Measurements pooled from the literature.
Cell line: HFF

SMILES	test	setting	measurement	result
C[C@H](N)C(=O)OCCOCn1cnc2c(=O)[nH]c(N)nc21	cell growth or viability		CC50	> 300 µM
COc1ccc(O)c(-c2nc(-c3ccccc3)c(-c3ccccc3)n2-c2ccccc2)c1	colorimetric viability	concentration not given, 72 h, at anti-Trypanosoma effective doses	cytotoxicity	not toxic
Nc1nc2c(ncn2COCCOC(=O)[C@@H](N)CO)c(=O)[nH]1	cell proliferation	10% FBS	CC50	> 300 µM
CC(C)CCN(c1nc(C#N)nc(NC2COC2)n1)C(C)c1ccc(F)cc1 (centres unmarked)	cell growth or viability, MTS	7 days	CC50	29.1 µM
C[C@H]1O[C@@H]2C3=C(O[C@]2(C)[C@@]1(O)C=O)C(=O)c1c(O)cccc1C3=O	cell growth or viability, MTT	48 h	CC50	7.6 µg/mL
Nc1nc2c(ncn2COCCOC(=O)[C@@H](N)CS)c(=O)[nH]1	cell growth or viability		CC50	> 300 µM
COC(=O)c1nc(O)c2cccnc2c1O	cell growth or viability, MTS	10 µM, 7 days	viability	98%
CC(C)CCN(Cc1ccc(F)cc1)c1nc(C#N)nc(N2CCOCC2)n1	cell growth or viability, MTS	7 days	CC50	65.2 µM
C=C(C)[C@@H]1CCC=C2CC[C@]3(C)[C@H](CC[C@@H]4[C@@]5(C)CCCNC(C)(C)[C@@H]5CC[C@]43C)[C@H]21	cell growth or viability, ATP luminescence		CC50	14.9 µM
N#Cc1nc(N2CCOCC2)nc(N(Cc2ccc(F)cc2)CC2CCCNC2)n1 (centres unmarked)	cell growth or viability, MTS	7 days	CC50	61.1 µM
O=C(NCc1ccc(F)cc1)c1nc(NCCO)c2cccnc2c1O	cell growth or viability, MTS	7 days	CC50	> 50 µM
CC1OC2OC3C4=C(OC3(C)C12O)C(=O)c1c(O)cccc1C4=O (centres unmarked)	cell growth or viability, MTT	48 h	CC50	3.97 µg/mL
COCCNc1nc(C(=O)NCc2ccc(F)cc2)c(O)c2ncccc12	cell growth or viability, MTS	10 µM, 7 days	viability	98%
Nc1nc2c(ncn2COCCOC(=O)CCC(=O)OC[C@H](N)C(=O)O)c(=O)[nH]1	cell proliferation	10% FBS	CC50	> 300 µM

Some of these lines once more:
SMILES	test	setting	measurement	result
CC(C)CCN(c1nc(C#N)nc(NC2COC2)n1)C(C)c1ccc(F)cc1 (centres unmarked)	cell growth or viability, MTS	7 days	CC50	29.1 µM
C[C@H]1O[C@@H]2C3=C(O[C@]2(C)[C@@]1(O)C=O)C(=O)c1c(O)cccc1C3=O	cell growth or viability, MTT	48 h	CC50	7.6 µg/mL
